Literature values that unrelated publications cite.
Compare with care: the assays were run in different laboratories. Numbers after ± are the reported error.
Chain of UniProt Q5VT25 (whole entry, looked up): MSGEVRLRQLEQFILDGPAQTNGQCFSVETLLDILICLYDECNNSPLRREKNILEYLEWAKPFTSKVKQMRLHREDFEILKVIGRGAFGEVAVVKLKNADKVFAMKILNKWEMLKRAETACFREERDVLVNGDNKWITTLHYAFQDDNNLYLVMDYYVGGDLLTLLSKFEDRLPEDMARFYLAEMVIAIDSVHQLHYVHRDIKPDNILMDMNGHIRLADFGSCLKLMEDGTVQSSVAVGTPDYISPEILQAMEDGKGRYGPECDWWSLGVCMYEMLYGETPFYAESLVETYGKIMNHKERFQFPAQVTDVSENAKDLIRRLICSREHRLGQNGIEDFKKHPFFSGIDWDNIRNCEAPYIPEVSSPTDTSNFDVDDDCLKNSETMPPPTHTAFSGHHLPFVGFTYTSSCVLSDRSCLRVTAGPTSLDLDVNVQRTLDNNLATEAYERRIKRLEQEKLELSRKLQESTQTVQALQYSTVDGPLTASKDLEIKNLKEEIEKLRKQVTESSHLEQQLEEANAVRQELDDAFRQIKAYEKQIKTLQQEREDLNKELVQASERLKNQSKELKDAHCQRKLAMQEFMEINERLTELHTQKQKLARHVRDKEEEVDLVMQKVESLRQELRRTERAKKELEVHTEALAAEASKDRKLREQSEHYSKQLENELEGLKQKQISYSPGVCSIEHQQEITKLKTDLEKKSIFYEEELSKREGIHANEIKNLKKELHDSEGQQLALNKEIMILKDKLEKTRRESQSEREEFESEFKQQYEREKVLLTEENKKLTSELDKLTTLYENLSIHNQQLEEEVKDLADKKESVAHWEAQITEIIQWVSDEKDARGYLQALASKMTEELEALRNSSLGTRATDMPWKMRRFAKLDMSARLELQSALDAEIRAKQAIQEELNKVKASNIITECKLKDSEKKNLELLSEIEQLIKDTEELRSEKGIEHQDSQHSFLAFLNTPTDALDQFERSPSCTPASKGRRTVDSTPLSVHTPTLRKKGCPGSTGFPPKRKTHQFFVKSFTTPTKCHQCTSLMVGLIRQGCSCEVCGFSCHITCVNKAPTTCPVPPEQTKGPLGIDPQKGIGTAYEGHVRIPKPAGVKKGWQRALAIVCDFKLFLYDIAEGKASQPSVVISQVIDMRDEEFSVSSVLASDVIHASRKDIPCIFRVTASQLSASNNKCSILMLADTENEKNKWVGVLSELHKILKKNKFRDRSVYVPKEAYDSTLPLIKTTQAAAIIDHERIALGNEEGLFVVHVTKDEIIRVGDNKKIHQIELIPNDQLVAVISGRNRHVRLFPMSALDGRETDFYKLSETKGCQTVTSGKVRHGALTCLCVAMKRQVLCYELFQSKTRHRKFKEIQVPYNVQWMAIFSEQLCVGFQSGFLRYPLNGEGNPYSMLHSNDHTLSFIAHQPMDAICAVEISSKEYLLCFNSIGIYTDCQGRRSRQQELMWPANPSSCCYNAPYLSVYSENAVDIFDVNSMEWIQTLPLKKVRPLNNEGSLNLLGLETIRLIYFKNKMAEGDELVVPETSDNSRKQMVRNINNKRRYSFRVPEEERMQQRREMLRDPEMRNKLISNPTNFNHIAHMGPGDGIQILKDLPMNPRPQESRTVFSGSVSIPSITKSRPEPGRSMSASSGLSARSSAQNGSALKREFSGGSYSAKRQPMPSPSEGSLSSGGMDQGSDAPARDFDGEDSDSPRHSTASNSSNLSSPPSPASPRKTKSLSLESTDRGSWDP

`COc1cc(O)c(CC=C(C)C)c(O)c1C(=O)/C=C/c1ccc(O)cc1` gave a half-life of 20 h (human; 60 mg).
`COCCc1ccc(OCC(O)CNC(C)C)cc1` (stereo not shown) has a half-life of 3 to 4 h (human).
The half-life of `Cn1ncnc1[C@H]1c2n[nH]c(=O)c3cc(F)cc(c23)N[C@@H]1c1ccc(F)cc1` is reported as 52.9 ± 3.4 h (human adults; 1000 µg/day).
With `CC#CC(=O)N1CCC[C@H]1c1nc(-c2ccc(C(=O)Nc3ccccn3)cc2)c2c(N)nccn12` the half-life was 1.13 h (human; 100 mg twice daily).
For `CC1(C)CCC2(CC1)N[C@@H](C(=O)N[C@@H]1CC[C@@H](C(N)=O)OC1)[C@H](c1ccnc(Cl)c1F)[C@]21C(=O)Nc2cc(Cl)ccc21`, the half-life was 10 h (human cancer patients; oral, 260 mg once daily, cycle 1 day 1).
With `CN(C)c1ccc2nc3ccc(=[N+](C)C)cc-3sc2c1` the half-life was roughly 10 h (human).
`Cc1ccc([C@@H]2O[C@H](CO)[C@@H](O)[C@H](O)[C@H]2O)cc1Cc1ccc(-c2ccc(F)cc2)s1` has a half-life of 13.3 h (human, preserved kidney function; 100 mg, steady state, mean).
With `NC[C@H]1O[C@H](O[C@H]2[C@H](O)[C@@H](O[C@H]3O[C@H](CO)[C@@H](O)[C@H](N)[C@H]3O)[C@H](N)C[C@@H]2N)[C@H](N)C[C@@H]1O` the half-life was 1.92 h (human).
The half-life of `Cn1c(=O)c2[nH]cnc2n(C)c1=O` is reported as 4 to 8 h (human).
`COc1cc2c(Oc3ccc4[nH]c(C)cc4c3F)ccnc2cc1OCC1(N)CC1` has a half-life of 95.3 ± 21.7 h (human; 10 mg single dose).
The remaining activity of `Nc1cc(C(F)(F)F)c(-c2nc(N3CCOCC3)nc(N3CCOCC3)n2)cn1` is reported as 100% (Serine/threonine-protein kinase MRCK alpha (CDC42BPA, Homo sapiens, UniProt Q5VT25); enzyme activity; 10 µM; baseline: untreated).
`CNC(=O)c1c(C)oc2cc(Oc3ncnc4cc(OC)c(OC)cc34)ccc12` gave a half-life of roughly 34 h (healthy human subjects; dose not given, single dose).
`CO[C@@H](C)Cn1c(=O)n(C)c2cnc3ccc(-c4cncc(C(C)(C)O)c4)cc3c21` has a half-life of 1.82 h (human; 20 to 325 mg, doses combined, geometric mean).
For `C=CC(=O)N1CCC(CNc2ncnc(N)c2-c2ccc(Oc3ccccc3)cc2)CC1`, the half-life was 2.09 h (human; 75 mg once daily).
For `CNC(=O)n1ccc2cc(Oc3ccnc(NC(=O)c4ccc(C5CCN(CCO)CC5)cc4)c3)c(OCCOC)cc21`, the half-life was roughly 20 h (human; estimated).
With `O=C(CCCCCCC(=O)Nc1ccccc1)NO` the half-life was 1.5 to 2.1 h (human; oral, dose not given).
With `C=CC(=O)N(C)CCOc1c(N)ncnc1-c1cc(F)cc(NC(=O)c2ccc(C3CC3)cc2F)c1C` the half-life was 8.51 h (human; 400 mg once daily).
For `O=C(O)Cc1ccccc1Nc1c(Cl)cccc1Cl`, the half-life was 1 to 2 h (human).
With `C=CC(=O)N1CCC[C@@H](n2nc(-c3ccc(Oc4ccccc4)cc3)c3c(N)ncnc32)C1` the half-life was 9.5 h (human; 560 mg once daily).
For `[H]/N=C(/N)N[C@H]1[C@H](O)[C@@H](O)[C@H](O[C@@H]2O[C@@H](C)[C@](O)(C=O)[C@H]2O[C@@H]2O[C@@H](CO)[C@H](O)[C@@H](O)[C@@H]2NC)[C@@H](N/C(N)=N\[H])[C@@H]1O`, the half-life was 2.5 h (human).
With `CC#CC(=O)N[C@H]1CCCN(c2c(F)cc(C(N)=O)c3[nH]c(C)c(C)c23)C1` the half-life was 1.63 h (human; 10 mg once daily).
The half-life of `CCC(C)n1ncn(-c2ccc(N3CCN(c4ccc(OCC5COC(Cn6cncn6)(c6ccc(Cl)cc6Cl)O5)cc4)CC3)cc2)c1=O` (stereo not shown) is reported as roughly 20 h (human; dose not given).
